Published values collected from several papers.
Compare with care: the assays were run in different laboratories. Numbers after ± are the reported error.
Target: Acetylcholinesterase (ache, Electrophorus electricus, UniProt O42275)
Chain of UniProt O42275 (whole entry, looked up): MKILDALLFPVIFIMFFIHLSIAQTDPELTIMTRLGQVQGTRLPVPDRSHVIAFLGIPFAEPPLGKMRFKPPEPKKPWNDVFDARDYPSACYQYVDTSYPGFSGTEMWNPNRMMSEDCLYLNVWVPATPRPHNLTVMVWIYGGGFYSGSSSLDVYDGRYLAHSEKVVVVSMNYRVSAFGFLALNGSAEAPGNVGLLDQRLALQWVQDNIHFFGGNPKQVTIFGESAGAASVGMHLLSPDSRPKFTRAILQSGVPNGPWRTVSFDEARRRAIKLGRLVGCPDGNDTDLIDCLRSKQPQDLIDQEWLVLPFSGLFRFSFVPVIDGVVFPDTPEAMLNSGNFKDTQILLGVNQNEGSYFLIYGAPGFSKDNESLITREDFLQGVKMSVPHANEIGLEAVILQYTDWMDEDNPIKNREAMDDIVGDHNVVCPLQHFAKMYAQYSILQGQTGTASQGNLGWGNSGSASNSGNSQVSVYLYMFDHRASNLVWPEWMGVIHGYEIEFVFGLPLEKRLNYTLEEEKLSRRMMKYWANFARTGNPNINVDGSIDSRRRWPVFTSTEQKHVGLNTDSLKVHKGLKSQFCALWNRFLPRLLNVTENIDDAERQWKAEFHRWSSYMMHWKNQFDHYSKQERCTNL

The inhibition of `Cc1ccc(Nc2c3c(nc4ccccc24)CCCC3)cc1` is reported as 15.9% (enzyme activity, inhibitor, Ellman; 50 µM).
For `O=c1c(NCCc2ccccc2)c(NC2CCN(Cc3ccccc3)CC2)c1=O`, the inhibition was 59% (enzyme activity, inhibitor, Ellman; 25 µM).
For `Cc1cccnc1Nc1c2c(nc3ccccc13)CCC(C)C2` (stereo not shown), the inhibition was 91.1 ± 5.92% (100 µM).
With `O=C(NCc1ccc(-c2ccc(F)cc2)o1)c1ccc(-n2cnc3ccccc3c2=O)cc1` the inhibition was 4.69 ± 1.62% (Ellman method; 10 µM).
For `O=S(=O)(F)CCc1cn(-c2ccc(-c3ccccc3)cc2)nn1`, the inhibition was 47.9% (20 µM).
`c1cncc(Nc2c3c(nc4ccccc24)CCCC3)c1` gave an inhibition of 46.4% (enzyme activity, inhibitor, Ellman; 50 µM).
For `COc1ccc(Nc2c(NC3CCN(Cc4ccccc4)CC3)c(=O)c2=O)cc1OC`, the inhibition was 62.4% (enzyme activity, inhibitor, Ellman; 25 µM).
`O=C(O)CCCN1C(=O)/C(=C/c2cn(-c3ccccc3)nc2-c2ccc(OCc3ccccc3F)cc2)SC1=S` has an inhibition of greater than 20% (10 µM).
`C[n+]1ccc2c(c1)[nH]c1ccccc12` gave an inhibition of 78% (enzyme activity, inhibitor; 0.1 µg/mL).
`COc1ccc(CNc2c(NC3CCN(Cc4ccccc4)CC3)c(=O)c2=O)cc1OC` gave an inhibition of 60.9% (enzyme activity, inhibitor, Ellman; 12.5 µM).
`O=C(c1ccc(Nc2c3c(nc4ccccc24)CCCC3)cc1)C1CC1` gave an inhibition of 31.9% (enzyme activity, inhibitor, Ellman; 100 µM).
With `O=C(CCn1cnc2sc3c(c2c1=O)CCCC3)NCCc1nc2ccccc2[nH]1` the inhibition was 9.8 ± 3.4% (Ellman method; 10 µM).
`O=c1c(Nc2ccccc2)c(NC2CCN(Cc3ccccc3)CC2)c1=O` has an inhibition of 55.7% (enzyme activity, inhibitor, Ellman; 25 µM).
`Cc1ccnc(Nc2c3c(nc4cc(C)ccc24)CCCC3)c1` has an inhibition of 59.3% (enzyme activity, inhibitor, Ellman; 100 µM).
The inhibition of `CCOc1ccc2[nH]c(SCC(=O)Nc3ccc(OC(F)F)cc3)nc2c1` is reported as 1.79 ± 0.59% (Ellman method; 10 µM).
The inhibition of `COc1ccc(Nc2c(NC3CCN(Cc4ccccc4)CC3)c(=O)c2=O)cc1` is reported as 59% (enzyme activity, inhibitor, Ellman; 12.5 µM).
The inhibition of `COc1ccc2cc(Nc3c4c(nc5ccccc35)CCCC4)ccc2c1` is reported as 70.4% (enzyme activity, inhibitor, Ellman; 100 µM).
With `CCc1ccc(Nc2c(NC3CCN(Cc4ccccc4)CC3)c(=O)c2=O)cc1` the inhibition was 50.4% (enzyme activity, inhibitor, Ellman; 25 µM).
With `Cc1cccnc1Nc1c2c(nc3ccccc13)CCCC2` the inhibition was 52.5% (enzyme activity, inhibitor, Ellman; 50 µM).
`O=c1c(Nc2ccc(O)cc2)c(NC2CCN(Cc3ccccc3)CC2)c1=O` has an inhibition of 66.7% (enzyme activity, inhibitor, Ellman; 25 µM).
The inhibition of `O=C(O)c1ccc(Nc2cc(N3CCN(c4cccc(C(F)(F)F)c4)CC3)c3noc4c3c2C(=O)c2ccccc2-4)cc1` is reported as greater than 20% (10 µM).
For `O=c1c(NCCc2ccc(Br)cc2)c(NC2CCN(Cc3ccccc3)CC2)c1=O`, the inhibition was 45.6% (enzyme activity, inhibitor, Ellman; 25 µM).
For `C[n+]1cc2[nH]c3ccccc3c2cc1C(=O)[O-]`, the inhibition was 0% (enzyme activity, inhibitor; 0.1 µg/mL).
For `COc1ccc(Nc2c3c(nc4ccccc24)CCCC3)nc1`, the inhibition was 66.5% (enzyme activity, inhibitor, Ellman; 50 µM).
`Cc1ccc(NCCCC(=O)NN=Cc2ccc3ccc4cccc5ccc2c3c45)cc1` has an inhibition of 8.16 ± 1.25% (Ellman method; 10 µM).

For quick reference, copied from above:
For `C[n+]1cc2[nH]c3ccccc3c2cc1C(=O)[O-]`, the inhibition was 0% (enzyme activity, inhibitor; 0.1 µg/mL).
For `COc1ccc(Nc2c3c(nc4ccccc24)CCCC3)nc1`, the inhibition was 66.5% (enzyme activity, inhibitor, Ellman; 50 µM).
For `O=S(=O)(F)CCc1cn(-c2ccc(-c3ccccc3)cc2)nn1`, the inhibition was 47.9% (20 µM).
`Cc1ccnc(Nc2c3c(nc4cc(C)ccc24)CCCC3)c1` has an inhibition of 59.3% (enzyme activity, inhibitor, Ellman; 100 µM).
